Published values of several laboratories.
Numbered parts are unrelated; each lists some results of a single study. Substitutions count along the parent as printed.

Study 1
Target: CCND3, cyclin fold, Cln2 fusion (human)
Technique: yeast growth competition, sequencing
Sample: yeast
Notes: weak parent motif
Relative to: not given
Direction: higher = stronger binding
Starting sequence: E2F1 docking peptide (human); PPVKRRLDFETDH
`PPFKRRLDFETDH [V3F]` — result for “normalised enrichment score”: -0.419.
For `PPVKRTLDFETDH [R6T]`, “normalised enrichment score” read 0.289.
For `PPVKKRLDFETDH [R5K]`, “normalised enrichment score” read 0.0832.
For `PPVKRRLDFEPDH [T11P]`, “normalised enrichment score” read 0.257.
For `PPVKRRLDFETLH [D12L]`, “normalised enrichment score” read 0.336.
For `PPIKRRLDFETDH [V3I]`, “normalised enrichment score” read 0.0437.
Under “normalised enrichment score”, `PRVKRRLDFETDH [P2R]` is recorded as 0.147.
`PPVKRRLDWETDH [F9W]` — result for “normalised enrichment score”: 0.27.
`PPVKRRLDFEQDH [T11Q]` — result for “normalised enrichment score”: 0.283.
For `PPDKRRLDFETDH [V3D]`, “normalised enrichment score” read -0.0119.
`PPVKRRLDFETRH [D12R]`: “normalised enrichment score” 0.306.
`PYVKRRLDFETDH [P2Y]`: “normalised enrichment score” 0.112.
`PPVKRRLDAETDH [F9A]` — result for “normalised enrichment score”: 0.0447.
Under “normalised enrichment score”, `PPVKTRLDFETDH [R5T]` is recorded as 0.241.
`PPVKRRLDSETDH [F9S]`: “normalised enrichment score” 0.0937.
For `PPVKRNLDFETDH [R6N]`, “normalised enrichment score” read 0.087.
For `PPVWRRLDFETDH [K4W]`, “normalised enrichment score” read 0.34.
`PPVKRREDFETDH [L7E]`: “normalised enrichment score” 0.347.
`PFVKRRLDFETDH [P2F]` — result for “normalised enrichment score”: -0.185.
Under “normalised enrichment score”, `PPVKIRLDFETDH [R5I]` is recorded as 0.158.
Under “normalised enrichment score”, `PPVKRRLTFETDH [D8T]` is recorded as 0.542.
For `PPVKRRLYFETDH [D8Y]`, “normalised enrichment score” read 0.368.
`PPVKRRLDDETDH [F9D]`: “normalised enrichment score” 0.079.
`PEVKRRLDFETDH [P2E]`: “normalised enrichment score” 0.155.
`PPVKRILDFETDH [R6I]`: “normalised enrichment score” -0.108.

Study 2
Target: ATF7, bZIP domain (human)
Technique: DHFR protein complementation
Sample: yeast
Notes: single substitutions, most at no-binding floor
Relative to: wild-type JUN-FOS pair
Direction: higher = stronger binding
Starting sequence: JUN, bZIP domain (human); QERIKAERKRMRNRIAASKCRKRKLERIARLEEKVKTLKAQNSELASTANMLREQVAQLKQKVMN; partner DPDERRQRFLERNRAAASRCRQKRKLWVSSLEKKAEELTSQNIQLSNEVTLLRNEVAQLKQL
With `S47M` the binding fitness was -0.861 natural log.
For `K39G`, the binding fitness was -1.2 natural log.
With `S43Q` the binding fitness was -0.677 natural log.
For `N42F`, the binding fitness was -1.3 natural log.
`A29R` has a binding fitness of -0.874 natural log.
The binding fitness of `E44M` is reported as -0.975 natural log.
`I28H` gave a binding fitness of -1.02 natural log.
With `R30L` the binding fitness was -0.807 natural log.
`L31R` has a binding fitness of -1.48 natural log.
The binding fitness of `E33D` is reported as -0.98 natural log.
The binding fitness of `T37R` is reported as -0.843 natural log.
The binding fitness of `L52R` is reported as -1.4 natural log.
The binding fitness of `N42P` is reported as -1.51 natural log.
`S43A` gave a binding fitness of -0.668 natural log.
For `L45G`, the binding fitness was -1.46 natural log.
`V56Q` gave a binding fitness of -1.4 natural log.
For `A57S`, the binding fitness was -1.14 natural log.
For `R53H`, the binding fitness was -1.39 natural log.
For `E44L`, the binding fitness was -1.09 natural log.

Study 3
Target: RING finger protein unkempt homolog, zinc fingers 1-6, SBP tag (UNK, Homo sapiens, UniProt Q9C0B0, residues 30-357)
UniProt Q9C0B0, sequence (30-357, looked up): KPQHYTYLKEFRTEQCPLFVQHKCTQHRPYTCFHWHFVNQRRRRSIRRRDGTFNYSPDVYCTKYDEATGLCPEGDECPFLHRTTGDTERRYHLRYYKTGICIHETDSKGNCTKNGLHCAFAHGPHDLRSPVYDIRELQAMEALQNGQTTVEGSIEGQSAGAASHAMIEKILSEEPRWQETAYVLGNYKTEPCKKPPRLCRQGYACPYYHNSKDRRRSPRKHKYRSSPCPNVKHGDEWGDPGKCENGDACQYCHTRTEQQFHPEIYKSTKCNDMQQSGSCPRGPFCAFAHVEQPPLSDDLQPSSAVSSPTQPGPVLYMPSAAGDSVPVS
Technique: RNA Bind-n-Seq
Form: RNA
Sample: in vitro
Concentration: 100 nM
Notes: RNA with constant flanks, vertebrate orthologous sites, ends assumed
Relative to: input RNA pool
Direction: higher = stronger binding
With `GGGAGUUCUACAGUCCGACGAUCAUUUUCAGUCUCUUCUCCCUUUUCCUGAUUUUAAAAGUCCUUCCCCCCCGCCCUUUUUAGGCAUUUGUAGUAACAUUAGCAGAAAGAUUUAAUUUGAGCAACUUUGAUUCUUAAAACAAACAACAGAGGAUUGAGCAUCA` the bound/input enrichment was 0.885 ratio.
For `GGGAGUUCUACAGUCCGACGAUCACGCUUCGACAUCAAGCUGACAAUCAGCUCGUGACCUCAGCCGCCAUGAGUGCUCGUUCCGAGAUCAAUAAAAUGUAGAGAGAAUAUAAGUUCAGAUAAACGCCACUAGUCUUUGAACAUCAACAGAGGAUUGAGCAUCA`, the bound/input enrichment was 0.225 ratio.
`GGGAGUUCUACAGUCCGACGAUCCACUGCCAUGGUUGAUGGCUCUGAGCUGAAAAAAGUGCGAUCCAAUUCGCGCAUUUACCAUCGCUACUUUCUCCUUGACGCCGACAUGCAGUCUUUGAGAUGGGAGCCUUCAAAGAAGGACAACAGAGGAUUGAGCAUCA` gave a bound/input enrichment of 0.182 ratio.
`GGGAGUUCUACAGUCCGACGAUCAGUGCUGAAUAGUAUUAAACAUUUUUGUCUUCCUUUACCUUUUAUCUCCUACCUAAUAUCUAGUCUACUUUUUUAAAUUUCAAAUUUCACUGCUCUUUGAAUUGAUAAUUUCAAUUUUCACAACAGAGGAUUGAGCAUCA` gave a bound/input enrichment of 12 ratio.
For `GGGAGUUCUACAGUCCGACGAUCGAGCUAAAGGAGUUAGCAUCUUUAUUUUUAUAUCAAAGAUAAAGGUUAUUUUGAAAUUAUUAGGAUUUUUACACAACUCUGAAAUCUGUUGCUUUUGUAAACAAAUGAUUUGAUUUUAGGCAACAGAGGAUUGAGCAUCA`, the bound/input enrichment was 1.22 ratio.
`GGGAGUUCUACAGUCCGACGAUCUUGUGUAGUUUUGUAUUUUCAUGCAAAAAUCUUACUGUACUUGAAUGUCUUUAUUUUAUUAAAUGUGUUUAAAAUUUUGGUUGUUAUAUCCUAGAAUUGCUGUAAUUAUACGUGUCGCAGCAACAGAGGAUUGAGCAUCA` gave a bound/input enrichment of 0.433 ratio.
The bound/input enrichment of `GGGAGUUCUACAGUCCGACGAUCAGAAAAUUUUAACCAAGAAUCCGAAGGUAGAAAUACAGGACCUUGGUUAUCUUCCUCACUUAGAAAUAGAUGCACACCUUUGUUCUCUAGAAGAAGGAGAGAGGGACGAGAUGAAUCUUCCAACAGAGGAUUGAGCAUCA` is reported as 0.939 ratio.
For `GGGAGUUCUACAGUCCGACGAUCGAAAUGGCCAGUGGAGGAAUCCCUGCCUUGGCCUUGCCUCCCCUCCUUGCCACCUGCCCCUAGGUAUUUUUUUUUUAACCAUCACAUGAUUCCGGUUGGCACUUCCUCCCCCCUGACCUGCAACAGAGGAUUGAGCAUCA`, the bound/input enrichment was 4.14 ratio.
With `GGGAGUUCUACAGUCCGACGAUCUUUUAUUGAUCAGGUCUGUAAAUGUGUACUAAAAAAAUCAGAGUUUAUUUAUAAACAGAAUAGUUUAUUUAAAGAAAAACUCUUUCCUCACUGACCUUGUGGUAUGCAUUAAUUCCAUUUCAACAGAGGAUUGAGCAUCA` the bound/input enrichment was 0.0567 ratio.
The bound/input enrichment of `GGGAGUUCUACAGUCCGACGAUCUUUGUUUUGCACAUGUGGCAGUGUUUGUAUUGAGGAUCUUCUGAGGAAGAAGGGGUGCUAUAGCAGUGGUGCCUGGGUUCCUGGCCUCCAGUGCCCCCACCACCCCACCUGGCAGCUUUGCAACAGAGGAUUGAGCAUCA` is reported as 0.408 ratio.
`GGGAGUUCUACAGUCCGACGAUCUCCAGCCUCAGCUGGCUGUGUCACAGCAUUCCUUACACAGCUAUUUAACAAGUACAAGUGGAGUUAACUUUCAGGAUACAUCUAGGCACUCAGCAUUAUCCUGCAGUCCAGUUGGAGAUGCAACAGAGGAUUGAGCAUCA` has a bound/input enrichment of 0.189 ratio.

Study 4
Target: Histone acetyltransferase KAT6A, both winged helices, GST fusion (KAT6A, Homo sapiens, UniProt Q92794, residues 1-181)
Technique: protein binding microarray
Form: double-stranded DNA, one strand shown
Sample: in vitro
Concentration: not given
Notes: 8-mer, flanks averaged, mean of 2 arrays, mostly near background
Relative to: not given
Direction: higher = stronger binding
Construct (chain): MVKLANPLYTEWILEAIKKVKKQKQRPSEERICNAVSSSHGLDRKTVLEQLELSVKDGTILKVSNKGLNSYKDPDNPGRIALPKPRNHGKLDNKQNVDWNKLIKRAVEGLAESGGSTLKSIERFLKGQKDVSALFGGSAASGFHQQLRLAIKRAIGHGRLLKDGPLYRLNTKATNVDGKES
For `ATTCCTCA`, the E-score was -0.0762.
`CACGAAGC` has an E-score of 0.0289.
With `TAAGACGA` the E-score was -0.124.
`TGTTGTAA` has an E-score of 0.0386.
With `CGGTCGAA` the E-score was 0.165.
The E-score of `CAATATAG` is reported as -0.102.
`AGTACTTA` gave an E-score of -0.113.
For `CAAAACAA`, the E-score was -0.101.
`GGCAAACC` gave an E-score of 0.0271.
With `AAGCCCTT` the E-score was -0.181.
For `TGAAGTAA`, the E-score was -0.159.
With `ATCAATAC` the E-score was -0.0458.
`GGTTTAGA` has an E-score of 0.0359.
`GACGTACC` has an E-score of -0.0415.
For `GGGCTTGA`, the E-score was -0.0916.
`TAGACTAA` gave an E-score of -0.109.
`CTAGGAAA` gave an E-score of -0.161.
`GGCGCAGA` gave an E-score of 0.176.
`AGCGTCAA` gave an E-score of 0.174.
`ACGTTGAA` gave an E-score of 0.00246.
`ATCGGTGA` gave an E-score of -0.0641.
`TAGCGTCA` has an E-score of 0.143.

Study 5
Target: Sal-like protein 4, full length isoform B (SALL4, Homo sapiens, UniProt Q9UJQ4-2, residues 1-616)
Technique: universal PBM
Form: double-stranded DNA, one strand shown
Sample: in vitro
Concentration: not given
Notes: 8-mer, flanks averaged, mean of replicates
Direction: higher = stronger binding
Construct (chain): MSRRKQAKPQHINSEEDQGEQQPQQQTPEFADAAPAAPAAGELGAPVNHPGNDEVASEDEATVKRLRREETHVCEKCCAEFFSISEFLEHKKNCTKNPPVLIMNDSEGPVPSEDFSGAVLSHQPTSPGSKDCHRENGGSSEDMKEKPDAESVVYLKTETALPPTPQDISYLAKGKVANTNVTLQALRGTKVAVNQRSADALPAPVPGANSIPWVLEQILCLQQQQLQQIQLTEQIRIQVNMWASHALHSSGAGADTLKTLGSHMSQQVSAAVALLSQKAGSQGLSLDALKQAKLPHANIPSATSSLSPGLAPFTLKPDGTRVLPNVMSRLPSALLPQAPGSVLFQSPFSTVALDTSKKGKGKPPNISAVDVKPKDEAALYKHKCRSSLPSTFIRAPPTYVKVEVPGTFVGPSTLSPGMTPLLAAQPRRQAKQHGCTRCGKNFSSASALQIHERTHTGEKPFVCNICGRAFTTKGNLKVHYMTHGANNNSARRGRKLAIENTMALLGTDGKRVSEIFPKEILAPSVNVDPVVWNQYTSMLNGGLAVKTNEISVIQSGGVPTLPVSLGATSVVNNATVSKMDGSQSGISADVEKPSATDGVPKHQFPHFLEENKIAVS
`GAGCCTCA` has an E-score of -0.223.
For `CGAGGACG`, the E-score was -0.248.
With `AGTCGCAT` the E-score was -0.00844.
`AAGCACCT` gave an E-score of -0.107.
`ATGAGGGA` has an E-score of 0.147.
For `ATTGGTCG`, the E-score was 0.0626.
`GTTCGGTA` gave an E-score of 0.00015.
`CCATGGGG` gave an E-score of -0.256.
The E-score of `GCAGAAGA` is reported as -0.0723.
For `CCGGAGCC`, the E-score was -0.323.
With `AATGTTTC` the E-score was 0.265.
The E-score of `AACAGCGT` is reported as 0.00761.
The E-score of `ACTCCGAA` is reported as -0.242.
`AGTGTATG` gave an E-score of 0.123.
`CTTACCGC` has an E-score of -0.257.
The E-score of `CAGCCTTC` is reported as -0.237.
The E-score of `CTGAAGGC` is reported as -0.203.
`ATGCTGGC` has an E-score of -0.0392.
`TACTAACA` gave an E-score of 0.203.
`GCTGGTAA` has an E-score of -0.00988.
With `AGCGACGA` the E-score was -0.13.
`GGCAACAC` gave an E-score of -0.0207.
The E-score of `AGGAAAAT` is reported as 0.156.
The E-score of `AGCTAAAG` is reported as 0.0152.
For `ACCGGGGG`, the E-score was -0.326.

For quick reference, copied from above (study 1):
`PYVKRRLDFETDH [P2Y]`: “normalised enrichment score” 0.112.
`PPVKRRLDAETDH [F9A]` — result for “normalised enrichment score”: 0.0447.
Under “normalised enrichment score”, `PPVKTRLDFETDH [R5T]` is recorded as 0.241.
`PPVKRRLDSETDH [F9S]`: “normalised enrichment score” 0.0937.
For `PPVKRNLDFETDH [R6N]`, “normalised enrichment score” read 0.087.
For `PPVWRRLDFETDH [K4W]`, “normalised enrichment score” read 0.34.
